{"data": "Measurements collected from several papers", "note": "Every numbered part comes from another study and shows a few of its results, in no order."}
{"data": "Sample 1", "target": "Centromere-binding protein 1, full length, N-terminal tag (CBF1, Saccharomyces cerevisiae, UniProt P17106, residues 1-351)", "method": "protein-binding microarray", "molecule type": "double-stranded DNA, one strand shown", "medium": "in vitro", "concentration": "0.8 µM", "setting": "whole 60-bp probe, no competitor", "reading": "higher = stronger binding", "UniProt P17106, sequence (whole entry, looked up)": "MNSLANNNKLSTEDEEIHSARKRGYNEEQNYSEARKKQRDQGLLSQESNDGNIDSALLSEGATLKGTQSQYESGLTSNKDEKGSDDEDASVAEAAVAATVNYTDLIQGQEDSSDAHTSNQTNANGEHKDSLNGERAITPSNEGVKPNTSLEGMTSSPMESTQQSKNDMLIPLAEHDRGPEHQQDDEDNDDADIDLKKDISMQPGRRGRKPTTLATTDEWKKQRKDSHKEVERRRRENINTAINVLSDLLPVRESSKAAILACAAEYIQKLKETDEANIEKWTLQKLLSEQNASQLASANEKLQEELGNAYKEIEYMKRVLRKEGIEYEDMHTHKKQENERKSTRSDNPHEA"}
{"Strand": "GAATCTTTATGTCATCTTGTCACGTCTTATATGTAGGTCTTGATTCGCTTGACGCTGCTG", "fluorescence intensity": "728 a.u."}
{"Strand": "TGTACGAAGCTATATCGCATGCATATAGTAGTTAGGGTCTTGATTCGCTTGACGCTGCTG", "fluorescence intensity": "503 a.u."}
{"Strand": "CTATGAGTACTTCCTCACCTGATCCAATCGATTTTCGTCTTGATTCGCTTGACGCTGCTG", "fluorescence intensity": "903 a.u."}
{"Strand": "CTACAATTTTTTTTTCACGTAATTGGAGAAAAATTCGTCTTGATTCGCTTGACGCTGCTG", "fluorescence intensity": "557 a.u."}
{"Strand": "CTACCCGCGAATTTTCACATGCACTTTAATCGATTCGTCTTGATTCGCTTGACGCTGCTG", "fluorescence intensity": "657 a.u."}
{"Strand": "GAACATTTGCTCTTTCATCAGACATTCTATATCTAGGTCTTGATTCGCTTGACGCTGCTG", "fluorescence intensity": "537 a.u."}
{"Strand": "GAAACTATAATGCATGACATGATGAATATGTAGTAGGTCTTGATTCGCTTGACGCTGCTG", "fluorescence intensity": "627 a.u."}
{"data": "Sample 2", "target": "RNA binding protein fox-1 homolog 2, RRM domain, GST-SBP tag (RBFOX2, Homo sapiens, UniProt O43251-10, residues 100-194)", "method": "RNA Bind-n-Seq", "molecule type": "RNA", "medium": "in vitro", "concentration": "365 nM", "setting": "natural RNA segment, single round, ends assumed", "baseline": "no-protein control", "reading": "higher = stronger binding", "Construct (chain)": "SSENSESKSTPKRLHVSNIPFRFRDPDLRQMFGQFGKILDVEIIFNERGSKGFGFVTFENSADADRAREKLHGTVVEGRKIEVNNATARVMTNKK"}
{"Strand": "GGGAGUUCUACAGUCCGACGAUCGCCGCCGGUAACAGGGGCCGCCGGCCAAAGGCCCCUUUCCAGUCAUAGCACUGAAGUUGCAACUUUUUUCUUGUAAUUGUUUUGCUACUAAGAUAAUUUCAGAAGUUCAGUGGAAUUCUCGGGUGCCAA", "RBNS enrichment (R)": 0.605}
{"Strand": "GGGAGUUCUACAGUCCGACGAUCUAAGAUAGUGUAACAUGCUUACAUUUCUUAUCCGACAUUAACAAAUAAAACGCUGUUUUCCUAUUAAUCUACUGUUCUUUUUAACCCUUUAAACCAGCAGGUCUCAGCCUUGGAAUUCUCGGGUGCCAA", "RBNS enrichment (R)": 0.415}
{"Strand": "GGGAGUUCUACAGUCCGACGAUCGCUGUUAACAAACAUACAACUUUUUUCUAGGGCUUUAAGGGUGGUCAUUUUUUUCAAGUUCUCUCAAGUGUCCCAAAUCAGGGUAGCAAUCUUGUUGCCACAUGUGCAGCUGGAAUUCUCGGGUGCCAA", "RBNS enrichment (R)": 0.474}
{"Strand": "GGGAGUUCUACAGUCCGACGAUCCUGGGUCCUAGCGACACCUCCUCACCCAAAUUUUCCUGUCUUCAAUAUCCUCAACAGACAAAAGAAGACAGGAAGCUUUUGGAGGCACGGGAAAAUUUUUGCUUGCUUGUUGGAAUUCUCGGGUGCCAA", "RBNS enrichment (R)": 0.828}
{"Strand": "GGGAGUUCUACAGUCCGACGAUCCUAGGGCUGUAUUUACUGUCACACACAGGCACCGGUAAGUGACUUUACCGGUGAAAGUCACAGGUACCUUUAUCUAUGAUGAAUGUAAUGUGUUAGAUGGUGACCGAAGUUGGAAUUCUCGGGUGCCAA", "RBNS enrichment (R)": 0.231}
{"Strand": "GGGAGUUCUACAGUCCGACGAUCCAUCAUCAGGGAGUGGUGUAGUCAGUUGAAGGCAGUUCCCACCGAGUUUUCCGAGCCUCAGAAUCCAGGAGAUACGCACAGCCCCACCCACUCUGAGAUGACAGUGGCUGUGGAAUUCUCGGGUGCCAA", "RBNS enrichment (R)": 4.42}
{"Strand": "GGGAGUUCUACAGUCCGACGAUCUGAUGGCAUUUUUUUGUCAUGAAAAAAAAAUAAUGUAAAUCACAGACUUUUGCCAAAGCUCUUAUUUUUUUUCUAAAUCUCUCCAGAAAAAAAUUGCAAGUGAUUAGAUUUGGAAUUCUCGGGUGCCAA", "RBNS enrichment (R)": 1.25}
{"Strand": "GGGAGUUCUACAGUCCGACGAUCUGCUUCUGGACCAGAACAGCUCCAGCUCCCAGGUAUUUUCUACAGGACCACUUGAGUGGGCAGCCAAGCCCAGGCUCGCAGUAUCAAUAAAGCAGUUCUCUGAGGAAUGAUGGAAUUCUCGGGUGCCAA", "RBNS enrichment (R)": 0.259}
{"Strand": "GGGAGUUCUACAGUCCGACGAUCAAAACAAAACAUAUUAUCGCAAGGGCUUUCAUUUCAGUAUUGGCUGUGUCACUGGCAGGAUGCAUCACUCUCCAGGGCCUCUUUUUCGGAGCUACUCCCAAUUCCACUCUUGGAAUUCUCGGGUGCCAA", "RBNS enrichment (R)": 1.21}
{"Strand": "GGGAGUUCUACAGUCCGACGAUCCUCUGAGCCGUGAUGCCAAAGGUUGCGACUCCUGACUCUGGAUAAUUUUUAGUUGCUCUUUGUUUUCUCUGCCGCACUUUCCUGGUGCCCCACGCUUUUCUCUCUUCCUUUGGAAUUCUCGGGUGCCAA", "RBNS enrichment (R)": 1.12}
{"Strand": "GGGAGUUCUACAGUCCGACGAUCUUACAUUUGUUUUAUUGUACAUAGGUUUGUAAACAUUAUUGCCUAAGAUAUUUGUAUAUAACUUGGGCUUUGUAGCUUUUAUUUAUUCAGACUCAUAUGGCAUGUUAAUUUGGAAUUCUCGGGUGCCAA", "RBNS enrichment (R)": 1.82}
{"data": "Sample 3", "target": "Histone acetyltransferase KAT6A, winged helix 2, GST fusion (KAT6A, Homo sapiens, UniProt Q92794, residues 85-181)", "method": "protein binding microarray", "molecule type": "double-stranded DNA, one strand shown", "medium": "in vitro", "concentration": "not given", "setting": "8-mer, flanks averaged, mean of 2 arrays, mostly near background", "baseline": "not given", "reading": "higher = stronger binding", "Construct (chain)": "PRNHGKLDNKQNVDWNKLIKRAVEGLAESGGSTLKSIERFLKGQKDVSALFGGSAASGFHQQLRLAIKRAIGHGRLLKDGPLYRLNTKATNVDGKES"}
{"Strand": "CGATAGCC", "E-score": -0.133}
{"Strand": "CTTAATAC", "E-score": -0.00326}
{"Strand": "CCGACCCG", "E-score": 0.148}
{"Strand": "CCGATCAC", "E-score": 0.107}
{"Strand": "CTAGTGAC", "E-score": -0.00893}
{"Strand": "ATTATGGG", "E-score": -0.147}
{"Strand": "CTGTTAAC", "E-score": 0.0743}
{"data": "Other studies, line by line"}
{"Substance": "PhoQ, residues 284 288 289 292 302 303 AANNSF", "target": "PhoP, residues 12 14 15 18 19 NHTVL (Escherichia coli, UniProt P23836)", "assay": "Sort-seq, refers to: YFP reporter", "system": "E. coli", "setting": "PhoQ-PhoP variant library, together with: 10 µM Mg2+", "how to read": "baseline: high Mg2+ state, higher = stronger signaling", "endpoint": "fold induction", "value": 0.622}
{"note": "A few entries again (sample 2):"}
{"Strand": "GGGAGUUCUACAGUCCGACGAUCCUAGGGCUGUAUUUACUGUCACACACAGGCACCGGUAAGUGACUUUACCGGUGAAAGUCACAGGUACCUUUAUCUAUGAUGAAUGUAAUGUGUUAGAUGGUGACCGAAGUUGGAAUUCUCGGGUGCCAA", "RBNS enrichment (R)": 0.231}
{"Strand": "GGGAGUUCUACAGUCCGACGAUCCAUCAUCAGGGAGUGGUGUAGUCAGUUGAAGGCAGUUCCCACCGAGUUUUCCGAGCCUCAGAAUCCAGGAGAUACGCACAGCCCCACCCACUCUGAGAUGACAGUGGCUGUGGAAUUCUCGGGUGCCAA", "RBNS enrichment (R)": 4.42}
